Published values collected from several papers.
Each numbered part is a random draw from the data of one study; scales do not carry over between parts.

Sample 1
Target: Ras GTPase-activating protein-binding protein 1, C-terminal RGG region (G3BP1, Homo sapiens, UniProt Q13283)
Chain of UniProt Q13283 (whole entry, looked up): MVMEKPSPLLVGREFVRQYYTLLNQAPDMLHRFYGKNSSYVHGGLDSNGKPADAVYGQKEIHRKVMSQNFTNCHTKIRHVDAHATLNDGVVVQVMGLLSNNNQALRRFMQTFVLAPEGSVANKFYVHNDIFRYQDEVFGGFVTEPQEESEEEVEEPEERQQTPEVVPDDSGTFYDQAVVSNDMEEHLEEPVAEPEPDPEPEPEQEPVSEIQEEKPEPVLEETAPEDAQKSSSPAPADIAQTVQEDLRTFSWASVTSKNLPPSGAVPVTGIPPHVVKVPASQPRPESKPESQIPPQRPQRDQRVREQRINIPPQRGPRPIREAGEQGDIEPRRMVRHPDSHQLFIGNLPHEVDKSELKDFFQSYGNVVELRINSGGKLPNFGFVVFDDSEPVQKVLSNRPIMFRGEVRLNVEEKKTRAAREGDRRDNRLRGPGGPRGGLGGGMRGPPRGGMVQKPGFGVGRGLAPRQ
Technique: RNA Bind-n-Seq
Molecule type: RNA
Medium: in vitro
Tested at: 1 µM
Notes: whole 134-nt RNA, ends assumed
With: 150 mM KCl
Reference: input library
Direction: higher = stronger binding
Constant ends, left off below: GGGAGUUCUACAGUCCGACGAUC … UGGAAUUCUCGGGUGUCAAGG
Oligonucleotide	log2 enrichment
GUCCUGUGCUACACAUCGUAUGUACCGAAUCGGGAAAAAGGGGAAAAAGGGAAAAAGGAAAGUAUUAUGUUACGCCGUUCGGAUCUGCAC	-1.06
UGCAGACGGGGAACCUGCUGAACUGGGGCCGCCUGCGGAAGAAGUGCCCGUCCACGCACAGCGAGGAGGUGAGCGUGGCGACACUCGCCG	-1.76
CACAGACAACACGCACCCACACAGACACAGAGGGAAGGGGUUGGGAUGGGGACAGGGUGCACAGCAGGGCGGGGCAGGACCCCAGCCCCU	-0.553
CUCAAGUCCUGUGCUACACAUCGUAUGUACCGAAUCGGGAGGGUUUGGGUGGGAAAGUAUUAUGUUACGCCGUUCGGAUCUGCACUUCCA	1.86
UCAAGUCCUGUGCUACACAUCGUAUGUACCGAAUCGGCCCGGGGCCCGGGCCCGGAAAGUAUUAUGUUACGCCGUUCGGAUCUGCACUUC	-1.85
AAGUCCUGUGCUACACAUCGUAUGUACCGAAUCGGGAAAAAAAGGGAAAGGGUGGGAAAGUAUUAUGUUACGCCGUUCGGAUCUGCACUU	1.1
AAGUCCUGUGCUACACAUCGUAUGUACCGAAUCGGAAAAGGGGAAAAGGGAAAAGGGAAAGUAUUAUGUUACGCCGUUCGGAUCUGCACU	-0.735
CUGAAGAGUCUGAGGAUGCCCAAUCACAGAGCCAAGCAGAUGAAGAGGAGGAAGAUGAUGAUUUUGGGGUGGAGUACUUGCUUGCCAGGG	-0.812
ACCAUGCAGGUGGGCAGCUUUGGGAAGUGGGGCAAGGGGGGGAUAGGGAGGGGGGUAACACUUUGGGAACAGGUGGUCCCAGGUCGUUUC	-1.42
AGUCCUGUGCUACACAUCGUAUGUACCGAAUCGGGAAAAAAAGGGAAAGGGUUUGGGAAAGUAUUAUGUUACGCCGUUCGGAUCUGCACU	0.6

Sample 2
Target: Histone acetyltransferase KAT6A, both winged helices, GST fusion (KAT6A, Homo sapiens, UniProt Q92794, residues 1-181)
Technique: protein binding microarray
Molecule type: double-stranded DNA, one strand shown
Medium: in vitro
Tested at: not given
Notes: 8-mer, flanks averaged, mean of 2 arrays, mostly near background
Reference: not given
Direction: higher = stronger binding
Target sequence (chain): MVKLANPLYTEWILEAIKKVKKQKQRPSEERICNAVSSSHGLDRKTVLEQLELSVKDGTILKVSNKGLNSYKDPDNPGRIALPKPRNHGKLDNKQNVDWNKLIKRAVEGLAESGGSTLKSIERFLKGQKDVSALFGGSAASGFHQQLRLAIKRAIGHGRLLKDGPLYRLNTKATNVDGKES
Oligonucleotide	E-score
GATCTGAA	-0.0407
CCATTCGA	-0.0996
GGTACTAA	-0.0122
GGTTTGAA	0.000435
ACAGTCGT	-0.00782
GGTCGGAA	0.0913
CTTAATGC	-0.0372
CTACACGA	-0.069
CCGCGTGA	0.28
GCCCGACC	0.0513
GATTTAAC	0.0955
TACAAGTA	-0.151
GTATGGAA	-0.12
CGGTGCCA	0.117
AGGCACTC	-0.15
GACAACTC	-0.0475
TCCGAGGA	-0.0341
CGATGCTC	0.045
ATACCGTG	0.198
TACATCAA	-0.085

Sample 3
Target: RNA binding protein fox-1 homolog 2, RRM domain, GST-SBP tag (RBFOX2, Homo sapiens, UniProt O43251-10, residues 100-194)
Technique: RNA Bind-n-Seq
Molecule type: RNA
Medium: in vitro
Tested at: 365 nM
Notes: natural RNA segment, single round, ends assumed
Reference: no-protein control
Direction: higher = stronger binding
Constant ends, left off below: GGGAGUUCUACAGUCCGACGAUC … UGGAAUUCUCGGGUGCCAA
Construct (chain): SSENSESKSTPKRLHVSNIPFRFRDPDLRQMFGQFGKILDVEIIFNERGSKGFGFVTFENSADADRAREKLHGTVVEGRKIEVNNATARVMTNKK
Oligonucleotide	RBNS enrichment (R)
ACUUCUGUAUUUCAAUCAUAUCAUGAACAUUUUAUUUUGCUAAAUCUUGUGUCAUGUGUAGGCUGUAAUAUGUGUACAUUGUGUUUAAGAGAAAAAUGAAACCCACAUGC	0.413
UAUAUCACAUUUUACUGAACCAAAAAGUUGGGUUUCCAAUAAAAUACUUGUUUUUUAAUAACCGACUUGUUUUUAACUGUGAUCUGAACUAUAAUGUACAGUUAUUACAG	0.576
ACCACAGCCAUUCAGGAACUACCCCCUGCCCCACAAAGAAAUGAACAGUUGUAGGGAGACCCAGCAGCACCUUUCCUCCACACACCUUCAUUUUGAUGUUCGGGUUUUUG	0.691
UCUACAUCAAAUGCGGCUGAGGCAUUUUACAGUGGUUUGCCAUUAGCGUGUUCAUUCAGAUAAUGUUUUCUUACUAGGAAUUACAAACUUAAAACAUUUUUCAACCUUUA	0.873
AAACCCGACAACAUUUCUGCCAGGUUUGUUAGGAGGCCACAUGAUACUUAUUCAAAAAAAUCCUAGAGAUUCUUAGCUCUUGGGAUGCAGGCUCAGCCCGCUGGAGCAUG	0.263
CUCCGACAUGAUCUACAUCCGCUGAAGAGUCUCGCUGUGGCCUCUGUCAGGGAUCCCUGGUGGAAGGGGAGGGGAGGGAGGAACCCAUAUAGUCAACUCUUGAUUAUCCA	0.32
UCCUGCUUUCUGCCCAAGAGUGUGUGUAUGAGGUAAAUCUGUGGCAUAAUGUACCAUUGGCUCACACCAGCUGUACAUAUGUGUACAUAGCAGAAUCUAAUAAAGCCCUC	0.235
UGGACUAAACUGCACCAAGGAAACACCCAGCAGGGUCUCCUGUGAGCCGGGGACCAUGCAGCCCGAAACCUCCAGUCACUGCGCCCGGCAGGAGUCAGGAGCCAGGGACU	0.78
AGCCAGUCUGAAGGCCUGAGCCAGGAGCGCUGUGUGGGUUGCCUGUCUCAGGUCGUUGUCAUUUGCCCUCCCUCCAAUUUUGCUUCCCACCCCCACCACUCUACUGAAAG	0.234
AGAAAAGGUAGUGGCCGAGCUGGUAUGGGCACAGACAGAUUGCUUUGUUCUUUCAUUUCUCCCAGCACUCACUUUCUGCCUGAGUCCGGUCCAAGGACUUUUACUUUGCG	1.1
AUGAACCCCUGGCUCCUUCACCACCCCCACGAUUGGUAUGAUGCUGCCGGCACAGCUGGGAUACACACGGCUCCCCCAGGCCUGAGCUGCUUCACUAGGGAAUCCUGCGG	0.412
CCCCCACCCACCUGGGCACCAUGGCCCUCCUCCAAUGGGUAAGUCAGUACCUGGGAAGUACGCCUGUGGGCUCUGGGGUCUAUCGCCUGCAUCAAGGAAAAGGUAUGAUG	3.01

Sample 4
Target: Interferon regulatory factor 7, full length, phosphomimetic (IRF7, Homo sapiens, UniProt Q92985, residues 1-503, S471D/S472D/S475D/S476D/S477D/S483D/S484D/S487D)
Chain of UniProt Q92985 (whole entry, unmodified, looked up): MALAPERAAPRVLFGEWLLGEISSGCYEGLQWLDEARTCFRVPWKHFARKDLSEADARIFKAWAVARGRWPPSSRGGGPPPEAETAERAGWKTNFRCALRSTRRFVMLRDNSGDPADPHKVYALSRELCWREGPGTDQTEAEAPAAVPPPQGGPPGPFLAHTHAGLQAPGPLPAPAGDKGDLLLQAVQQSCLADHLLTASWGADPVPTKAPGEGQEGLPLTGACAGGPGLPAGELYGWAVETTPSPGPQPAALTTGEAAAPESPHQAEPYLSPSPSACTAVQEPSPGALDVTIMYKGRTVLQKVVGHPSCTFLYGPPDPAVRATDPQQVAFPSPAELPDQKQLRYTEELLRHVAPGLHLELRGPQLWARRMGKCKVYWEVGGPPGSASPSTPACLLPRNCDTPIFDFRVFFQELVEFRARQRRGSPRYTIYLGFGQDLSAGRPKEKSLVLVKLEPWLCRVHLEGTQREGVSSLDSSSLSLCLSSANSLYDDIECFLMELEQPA
Technique: protein-binding microarray
Molecule type: double-stranded DNA, one strand shown
Medium: in vitro
Tested at: 2200 nM top
Notes: 60-bp whole probe
With: salmon DNA 0.4 mg/ml
Reference: random background probes
Direction: higher = stronger binding
Constant ends, left off below: GCCTAGCAC … GTCTTGATTCGCTTGACGCTGCTG
Oligonucleotide	fitted relative affinity
GACGGACTGGGACTGGGCACGTGCTAG	-1.11 z-score
TTAGGTTCCGGTTTCGGTAAGTGCTAG	5.25 z-score
TTAGACATCGGGTTTCGATTAGTGCTA	2.41 z-score
GACGAAATCAGTCTCGAGACGTGCTAG	0.343 z-score
TTGGGTATCGGGTTTCGGTTAGTGCTA	3.59 z-score
TGAAATCTCTTTCCTTACTTGTGCTAG	1.2 z-score
GACGGTATCGGGTTTGGGGACGTGCTA	0.087 z-score
TTAGGTTTCAGACTGGGTTAGTGCTAG	0.754 z-score
TTAGGTCTCCTTCTCCTATAGTGCTAG	1.2 z-score
GACGATTTCGGGACTTGAGACGTGCTA	1.29 z-score
TTTCTTTTATGCTCTTTCTACGTGCTA	3.68 z-score
GTCGATCTCAGTTTCGAGACGTGCTAG	3.71 z-score
TCACATTTTTTTTCATCACTGTGCTAG	1.77 z-score
AGGGAGGTCTCTCCCGACCTGTGCTAG	-0.906 z-score
GACGGTCTCATTTTCCTGACGTGCTAG	1.69 z-score
TTAGGTATCGGGAATCGGTTAGTGCTA	0.137 z-score
GACGATATCACACTGGAGACGTGCTAG	0.325 z-score
AGCCAGGCAACCTATGGCCTGTGCTAG	-1.49 z-score
ACATATTTGTTTCCATTTTCGTGCTAG	4.65 z-score
TTAGATATCAGTATCGTTTAGTGCTAG	0.68 z-score
ATGACTCCCTCTCTGGCCAAGTGCTAG	1.1 z-score
TTAGATTCCAGGTTCGATTAGTGCTAG	1.23 z-score
TTTGGTTTCGGTTTCGGTTAGTGCTAG	18.4 z-score
TTAGATCTCAGTCTCGATTGGTGCTAG	0.739 z-score

Excerpt of the above (sample 2):
Oligonucleotide	E-score
CCATTCGA	-0.0996
ATACCGTG	0.198
AGGCACTC	-0.15
ACAGTCGT	-0.00782
GTATGGAA	-0.12
CGGTGCCA	0.117
